Experimental data from different studies.
Each numbered part is a random draw from the data of one study; scales do not carry over between parts. Substitutions count along the parent as printed.

Set 1
Target: RNA binding protein fox-1 homolog 2, RRM domain, GST-SBP tag (RBFOX2, Homo sapiens, UniProt O43251-10, residues 100-194)
Technique: RNA Bind-n-Seq
Molecule type: RNA
Sample: in vitro
Concentration: 365 nM
Notes: natural RNA segment, single round, ends assumed
Relative to: no-protein control
Direction: higher = stronger binding
Measurement: RBNS enrichment (R)
Constant ends, left off below: GGGAGUUCUACAGUCCGACGAUC … UGGAAUUCUCGGGUGCCAA
Construct (chain): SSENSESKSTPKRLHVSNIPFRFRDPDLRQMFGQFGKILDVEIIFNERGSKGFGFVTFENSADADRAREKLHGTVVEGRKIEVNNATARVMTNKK
CUUAAAUCUCCAUUCUGUUUGUGGUUGCCCCCUCAACCUCCCCUACACCCUUCCUAUUCUUUUUCAUUCUUCUUGCAGUUCUGGGAGUAAAGCUCCCAGCAUAUUUAGAU: 0.414
UAAAACUGUAAUUUGAUUCACAUCUUUUCAAAUGGAGUUGGAGUUGAUUCAUAUUACAAUAUUUGUGUGCAAAAUGUGUAUGUUUUUCAGUUUAAAGUCAUGUUUUUAAA: 0.586
CCCUAAACCACUUCCUUAAAAUGUUUGGAUUUGCAAAGCCAAUUUGGGGCCUGUGGAGCCUGGGGUUGGAUAGGGCCAUGGCUGGUCCCCCACCAUACCUCCCCUCCACA: 0.477
GCUGUGCCCCACCUCCAGCCUCACCACCAGGCCAGGAGGCAGCUGGCACAGUGCUCACGCCGCCUUUAUUUAUUGGACCAGAAACACUCACAUGUCACUUCCAGAGGAAC: 0.519
UCCAAUGGGUCACACAUGUCUUAUACAUACUUAAUAAUUGAGAGUGGCAAUUCCGCUGGAGCUGUCUGCCAAAAGAAACUGCCUACAGACAUCAUCACAGCAGCCUCCUC: 0.566
UUUUGUAGUUGUGGCAUCUUGUUGACAUCGAAUAUGACUUUGAUAAUAAAUACCAGUUCCUGAAAGUGCUUGCCUUUUUUGUUUUUGUAUAUUUUGUAGAGGUGGCCAUU: 1.1
UGGGAGUAUACGGAAACAAAAAUGAUCCUCAGUGCAAAAUGUCUUGUGUAUUUCUCUGUGAAUCCAUGGGUCUGGCUAGAGGGCCCAAAGCUUGUAAAUAUGGGGAUAGU: 2.05
AACCCUGCAUUGGGAUAUCGAAGCACUGCUUAGGUUCUGAGGUGUGGGUUCCCUGCCACCCAGGCAAACAGGCUGAAGAUUCUCACCUUUUCUUUCCAGUGUGAUUACAC: 0.174

Set 2
Target: JUNB, bZIP domain (human)
Technique: DHFR protein complementation
Sample: yeast
Notes: single substitutions, most at no-binding floor
Relative to: wild-type JUN-FOS pair
Direction: higher = stronger binding
Measurement: binding fitness
Starting sequence: JUN, bZIP domain (human); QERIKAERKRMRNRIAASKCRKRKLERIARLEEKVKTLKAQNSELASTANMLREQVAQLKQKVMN; partner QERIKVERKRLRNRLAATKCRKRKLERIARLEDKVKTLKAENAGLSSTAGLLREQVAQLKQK
A57Q: -1.23 natural log
L52V: -1.36 natural log
Q58R: -1.07 natural log
A29S: -1.21 natural log
A49Y: -1.39 natural log
E32L: -1.35 natural log
R30Y: -1 natural log
L52W: -1.37 natural log
K39C: -1.39 natural log
L45Y: -1.31 natural log
E32Q: -1.35 natural log
A29Y: -1.36 natural log
I28W: -1.48 natural log
T48K: -1.19 natural log
S43E: -0.813 natural log
T48N: -1.38 natural log
M51R: -1.07 natural log
T37D: -1.09 natural log
T37F: -1.08 natural log
K34S: -1.24 natural log
S47V: -1.04 natural log
R53G: -1.45 natural log
A57N: -1.18 natural log
N42R: -1.24 natural log
A29C: -1.4 natural log

Set 3
Target: Cyclic AMP-responsive element-binding protein 1, full length (CREB1, Homo sapiens, UniProt P16220, residues 1-327)
Sequence of UniProt P16220 (whole entry, looked up): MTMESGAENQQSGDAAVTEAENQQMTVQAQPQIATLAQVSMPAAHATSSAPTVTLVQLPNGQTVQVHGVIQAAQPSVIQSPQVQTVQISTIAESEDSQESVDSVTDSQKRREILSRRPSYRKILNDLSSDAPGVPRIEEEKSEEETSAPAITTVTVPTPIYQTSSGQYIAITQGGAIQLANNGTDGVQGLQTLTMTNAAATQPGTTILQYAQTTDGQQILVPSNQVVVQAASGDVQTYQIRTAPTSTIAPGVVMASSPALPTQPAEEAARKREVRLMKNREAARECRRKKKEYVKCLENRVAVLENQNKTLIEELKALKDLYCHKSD
Technique: protein-binding microarray
Molecule type: hairpin DNA
Sample: in vitro
Concentration: not given
Notes: whole hairpin DNA, median over replicate spots
Relative to: not given
Direction: higher = stronger binding
Measurement: median fluorescence
Constant ends, left off below: GAGGCCG … CGGCCTCACACTC
ACGCGGTCGTGCCTCCTGGCACGACCGCGT (5mC at 9 15 29 33 35): 2840 a.u.
GATGACGGCAGCCTCCTGGCTGCCGTCATC: 4420 a.u.
GCTGAGGTCAGCCTCCTGGCTGACCTCAGC (5mC at 32): 2490 a.u.
GCTGAAGTCAGCCTCCTGGCTGACTTCAGC: 2510 a.u.
CCTGACGTCAGCCTCCTGGCTGACGTCAGG (5mC at 8): 10500 a.u.
ACGACGTCCTGCCTCCTGGCAGGACGTCGT (5mC at 9 15 16 35): 3000 a.u.
GATGACGCGAGCCTCCTGGCTCGCGTCATC: 6320 a.u.
CGGACGTCGTGCCTCCTGGCACGACGTCCG (5mC at 15 29 35 36): 3330 a.u.
GATCGCGTCAGCCTCCTGGCTGACGCGATC (5mC at 11): 3680 a.u.
GCTGGCGTCAGCCTCCTGGCTGACGCCAGC (5mC at 33): 7920 a.u.
GATGACGGCAGCCTCCTGGCTGCCGTCATC (5mC at 30): 4500 a.u.
GCTGAGGTCAGCCTCCTGGCTGACCTCAGC: 2800 a.u.
ACGACGCGGTGCCTCCTGGCACCGCGTCGT (5mC at 9 29 35): 3760 a.u.
GATGACCTCAGCCTCCTGGCTGAGGTCATC (5mC at 14): 2620 a.u.
ACGACGCGGTGCCTCCTGGCACCGCGTCGT (5mC at 9 14 29 30 35): 4610 a.u.
CATGACGTCAGCCTCCTGGCTGACGTCATG: 19200 a.u.

Set 4
Target: CCNA2, cyclin fold, Cln2 fusion (human)
Technique: yeast growth competition, sequencing
Sample: yeast
Notes: strong parent motif
Relative to: not given
Direction: higher = stronger binding
Measurement: normalised enrichment score
Starting sequence: BRCA2 docking peptide (human); PSIKRNLLNEFDR
PSIKWNLLNEFDR [R5W]: 0.377
PSIKRNLFNEFDR [L8F]: 4.11
PSIKRNLLQEFDR [N9Q]: 5.2
PSIKRNLCNEFDR [L8C]: 3.89
VSIKRNLLNEFDR [P1V]: 5.5
PSIKQNLLNEFDR [R5Q]: 1.11
PSIKRVLLNEFDR [N6V]: 2.79
PSIKRNLLNEFHR [D12H]: 3.78
PSIKRNLLNEMDR [F11M]: 2.2
PKIKRNLLNEFDR [S2K]: 5.74
PSIKRRLLNEFDR [N6R]: 3.8
PSIFRNLLNEFDR [K4F]: 3.22
PSIKRNLLIEFDR [N9I]: 5.52
ESIKRNLLNEFDR [P1E]: 4.99
PSIKRNLLNEFMR [D12M]: 5.12
PSIKRNDLNEFDR [L7D]: 0.343
PSIKRNLLNEFSR [D12S]: 4.59
PSIKRFLLNEFDR [N6F]: 1.97
PSIKRNYLNEFDR [L7Y]: 0.93
PSICRNLLNEFDR [K4C]: 5.68

Set 5
Target: ABI1, truncated, D143A, DHFR fusion (Arabidopsis thaliana)
Technique: DHFR PCA, deep sequencing
Sample: yeast
Notes: methotrexate growth selection, single substitutions
With: (+)-ABA 200 µM
Relative to: wild-type fitted maximum
Direction: higher = stronger binding
Measurement: relative binding score
Starting sequence: PYL1, truncated, DHFR fusion (Arabidopsis thaliana); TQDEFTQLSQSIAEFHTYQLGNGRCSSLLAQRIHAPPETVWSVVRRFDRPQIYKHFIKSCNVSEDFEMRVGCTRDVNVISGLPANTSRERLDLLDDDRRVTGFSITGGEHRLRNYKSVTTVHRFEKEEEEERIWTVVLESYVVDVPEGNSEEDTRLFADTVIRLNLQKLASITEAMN; partner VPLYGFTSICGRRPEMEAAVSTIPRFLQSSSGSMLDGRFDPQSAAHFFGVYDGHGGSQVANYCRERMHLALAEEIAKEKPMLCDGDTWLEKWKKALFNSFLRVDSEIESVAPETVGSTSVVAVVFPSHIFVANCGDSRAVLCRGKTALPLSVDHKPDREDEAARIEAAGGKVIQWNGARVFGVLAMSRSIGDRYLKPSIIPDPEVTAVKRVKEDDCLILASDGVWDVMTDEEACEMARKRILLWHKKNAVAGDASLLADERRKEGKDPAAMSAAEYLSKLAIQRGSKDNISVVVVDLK
C25N: -7.22%
V161F: 88.9%
V121Q: 2.88%
A84H: 40.3%
V62K: 62.8%
T154G: 14.2%
W41I: -10.7%
V44I: 93%
E64G: 100%
W41N: -42.2%
D95C: 91.7%
I52E: 99.6%
F157L: 89.6%
R123G: 102%
E130P: 112%
D95Q: 73.7%
G71W: 23%

For quick reference, copied from above (set 3):
ACGACGCGGTGCCTCCTGGCACCGCGTCGT (5mC at 9 14 29 30 35): 4610 a.u.
CGGACGTCGTGCCTCCTGGCACGACGTCCG (5mC at 15 29 35 36): 3330 a.u.
ACGCGGTCGTGCCTCCTGGCACGACCGCGT (5mC at 9 15 29 33 35): 2840 a.u.
GCTGAAGTCAGCCTCCTGGCTGACTTCAGC: 2510 a.u.
GATCGCGTCAGCCTCCTGGCTGACGCGATC (5mC at 11): 3680 a.u.
GATGACGCGAGCCTCCTGGCTCGCGTCATC: 6320 a.u.
CATGACGTCAGCCTCCTGGCTGACGTCATG: 19200 a.u.
GATGACGGCAGCCTCCTGGCTGCCGTCATC: 4420 a.u.
GCTGGCGTCAGCCTCCTGGCTGACGCCAGC (5mC at 33): 7920 a.u.
GCTGAGGTCAGCCTCCTGGCTGACCTCAGC: 2800 a.u.
ACGACGCGGTGCCTCCTGGCACCGCGTCGT (5mC at 9 29 35): 3760 a.u.
GATGACGGCAGCCTCCTGGCTGCCGTCATC (5mC at 30): 4500 a.u.
